Assay results collected from several papers.
Compare with care: the assays were run in different laboratories. Several values in a cell are separate wells, animals, samples, runs or records.
Target: Histamine H1 receptor (HRH1, Homo sapiens, UniProt P35367)

`CCN(CC)CCOc1ccc(-c2nnn(Cc3ccc(OC)cc3)c2N)cc1` gave an inhibition of 10.8% (radioligand binding; HEK293; 10 µM, safety profiling).
For `COc1ccc(F)cc1S(=O)(=O)Nc1cnc2c(c1)C(=O)NCCO2`, the inhibition was 4% (ligand displacement, radioligand; 10 µM).
`Cc1cc(Nc2nc(C[C@@]3(C(=O)O)CCN(Cc4cccc(Cl)c4F)[C@H](C)C3)cc(C)c2F)[nH]n1` has an inhibition of -1.73% (inhibitor; 10 µM).
`CCCO[C@H]1[C@H](O)[C@@H](N)[C@@H](O[C@H]2[C@H](O[C@@H]3O[C@H](CO)[C@@H](O[C@H]4O[C@@H](CN)[C@@H](O)[C@H](O)[C@H]4N)[C@H]3O)[C@@H](O)[C@H](N)C[C@@H]2N)O[C@@H]1CO` has a specific binding of 3% (radioligand binding; 10 µM, 1% DMSO).
For `CCOC(=O)[C@](CC)(CCCSCCOCCOCCNC(=O)c1ccc(-c2c3ccc(=N)c(S(=O)(=O)O)c-3oc3c(S(=O)(=O)O)c(N)ccc23)c(C(=O)O)c1)NC(=O)c1ccc(C2CC2)c(Cc2ccc(F)cc2)n1`, the inhibition was 2% (ligand displacement, radioligand; 10 µM).
`Cc1ccc2c(n1)c(-c1cccc(S(C)(=O)=O)c1)c(C)n2C/C(F)=C/CN` has an inhibition of 15% (ligand displacement, radioligand; 10 µM).
With `O=C(O)c1ccc(-c2nc(-c3ccccc3Cl)c3sccn23)cc1` the specific binding was 111% and 107% (radioligand binding, safety screen panel; 10 µM; relative to: control).
The inhibition of `C/C(=N\OCCCN1CCCCC1)c1ccc(C(F)(F)F)cc1` is reported as 12.6% (antagonist, IP-One; 10 µM).
For `N[C@H](C(=O)N1CCCC1)C1CCN(c2nccc3c(-c4ncc(Cl)cc4Cl)cccc23)CC1`, the response was 0% (functional response, agonist; 10 µM).
For `Cc1cc(-c2ccc3ccccc3c2)nnc1NCCN1CCN(C)CC1`, the activity was 0% (antagonist; 10000 nM; relative to: control).
`CCc1nnc(-c2c(OC)cc(-c3cnc4cc(-c5cnn(C)c5)ccn34)cc2OC)o1` gave a remaining binding of 106% (antagonist radioligand, radioligand binding; 10 µM, SafetyScreen44 H1 replicate 2; lower = stronger displacement).
For `CN[C@@H]1[C@H](O)[C@H](NC)[C@H]2O[C@]3(O)[C@H](O[C@@H]2[C@H]1O)O[C@H](C)C[C@H]3NC(=O)Cc1ccc(Cl)cn1`, the inhibition was -3% (ligand displacement, radioligand; 10 µM).
The inhibition of `Cc1sc2c(c1C)C(c1ccc(Cl)cc1)=NC(CC(=O)OC(C)(C)C)c1nnc(C)n1-2` (centres unmarked) is reported as -5% (specific binding; 1 µM).
For `CS(C)(=O)=Nc1ccc(-c2ccc(-c3nc4cc(O[C@@H]5CO[C@H]6[C@@H]5OC[C@H]6O)[nH]c4cc3F)cc2)cc1`, the inhibition was 35% (calcium signal, antagonist; 10 µM).
